Experimental data of several laboratories.
Numbered parts are unrelated; each lists some results of a single study.

Set 1 — method: RNA Bind-n-Seq; form: RNA; medium: in vitro; concentration: 200 nM; notes: whole 134-nt RNA, ends assumed; added: 150 mM KCl; relative to: input library; reading: higher = stronger binding
Target: Fragile X messenger ribonucleoprotein 1, C-terminal low-complexity region (Fmr1, Mus musculus, UniProt P35922)
`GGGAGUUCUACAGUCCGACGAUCUGGGAGGUGGAUUUUGUUUAUUUUUUUAGCUCAUUUCCAGGCGUGGGAAUUUUUUUUUAAUAUGUGUCAUGAAUAAAGUUGUUUUUGAAAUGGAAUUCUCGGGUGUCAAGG` has a log2 enrichment of -0.482.
The log2 enrichment of `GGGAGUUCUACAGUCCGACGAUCUGGAGAAGCGCUACCUGGCUGCUCAGCGUGAGGCAACAUCCAUCCAUGACCUCAAUGACAAGCUGGAGAAUGAGCUGGCCAACAAGGAGUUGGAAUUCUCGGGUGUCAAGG` is reported as -1.05.
`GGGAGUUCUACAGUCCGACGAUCCCUCAAGUCCUGUGCUACACAUCGUAUGUACCGAAUCGGGGCGGGCGGGGCGGAAAGUAUUAUGUUACGCCGUUCGGAUCUGCACUUCCAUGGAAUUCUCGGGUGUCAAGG` gave a log2 enrichment of 0.997.
`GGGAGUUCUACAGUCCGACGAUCUAGGUAAGAAAGUACUCAUUGUCUAUGCACACCAGGAACCCAAGUCUUUCAACGGAUCCUUGAAGAAUGUGGCUGUAGAUGAACUGAGCAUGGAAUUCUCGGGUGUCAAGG` gave a log2 enrichment of 0.1.
For `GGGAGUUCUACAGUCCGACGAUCCUGUGCUACACAUCGUAUGUACCGAAUCGGGGAAAAAGGGGUUUUUGGGGAAAAAAAGGGGAAAGUAUUAUGUUACGCCGUUCGGAUCUGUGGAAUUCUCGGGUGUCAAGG`, the log2 enrichment was -0.134.
`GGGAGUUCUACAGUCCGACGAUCCCUGUGCUACACAUCGUAUGUACCGAAUCGGAAAAAAAGGGAAAAAAAGGAAAAAAAGGGAAAGUAUUAUGUUACGCCGUUCGGAUCUGCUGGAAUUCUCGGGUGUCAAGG` has a log2 enrichment of -0.769.
`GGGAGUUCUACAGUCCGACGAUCCCUGUGCUACACAUCGUAUGUACCGAAUCGGGGCCCCCCGGGGCCCCCCGGGCCCCCCGGGAAAGUAUUAUGUUACGCCGUUCGGAUCUGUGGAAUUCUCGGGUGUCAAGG` gave a log2 enrichment of -0.964.
The log2 enrichment of `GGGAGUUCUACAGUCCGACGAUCUUCCUCAAGUCCUGUGCUACACAUCGUAUGUACCGAAUCGGUGGGUGGUGGAAAGUAUUAUGUUACGCCGUUCGGAUCUGCACUUCCAGCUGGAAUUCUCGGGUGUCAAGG` is reported as -0.0417.
With `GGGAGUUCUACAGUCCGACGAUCUCCUGUGCUACACAUCGUAUGUACCGAAUCGGGGAAAAAAAGGGGAAAAAGGGGAGGGGAAAGUAUUAUGUUACGCCGUUCGGAUCUGCAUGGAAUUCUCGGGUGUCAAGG` the log2 enrichment was 0.658.

Set 2 — method: RNA Bind-n-Seq; form: RNA; medium: in vitro; concentration: 365 nM; relative to: no-protein control; reading: higher = stronger binding
Target: RNA binding protein fox-1 homolog 2, RRM domain, GST-SBP tag (RBFOX2, Homo sapiens, UniProt O43251-10, residues 100-194)
Notes: natural RNA segment, single round, ends assumed
Target sequence (chain): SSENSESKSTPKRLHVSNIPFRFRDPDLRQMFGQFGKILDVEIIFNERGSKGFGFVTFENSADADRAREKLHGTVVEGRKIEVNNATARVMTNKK
`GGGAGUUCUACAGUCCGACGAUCUCCCCUCUAAUGCUCACGCUCCCAACACAAGGUGGGCAGGGAGGCACCAUUCAGGAACCUGGACCAAAGCUGACGAGGCUGGGCCAAGCCAGGGAUGGGGCCACAGCCAGUGGAAUUCUCGGGUGCCAA`: “RBNS enrichment (R)” 0.301.
For `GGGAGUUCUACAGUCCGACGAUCAGACAGCAGAGUUGCUCCAAGUAUAAAUGUGACUUAGGCUCCCUCCAGCACACAGUGUGUAUGUUGGAGGGAGUGUGGAUUAGCAGAGAAUGAGAACUACCUCAGCUAUUUGGAAUUCUCGGGUGCCAA`, “RBNS enrichment (R)” read 0.463.
`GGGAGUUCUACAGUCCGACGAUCUGCUCACUUCGUUAGCAUUUCUGAGCCAGAGGCUGGCUCCCUCCCGUGGGGAUCUGGGAGCUGGCACUGUGUACACCUGUCCCUGACUGUCCACGUCUCCCGUGAUUGCCUGGAAUUCUCGGGUGCCAA`: “RBNS enrichment (R)” 0.548.
For `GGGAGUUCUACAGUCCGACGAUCUUCUCUACCCCUCCACCUUAAACAUAUAUUAUUAAAGACAGAAGAGAAAAUCCAACCCAUUGCAAGAAGCUCUUUGUGGGUGCCUGGUUACAUCGGAGCAGGGGAGCCUCUGGAAUUCUCGGGUGCCAA`, “RBNS enrichment (R)” read 1.28.
Under “RBNS enrichment (R)”, `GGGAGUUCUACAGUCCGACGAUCCACAUGGGCUCUUUUUCAGGUUUGAUGUAAGCAUAGGCUUGCAUAUUCCCAAGGUACAUACUUUGACUUAAAUGUGGGAUAACUCAGCACUAAUGGGCAGGUAAAGUCACUGGAAUUCUCGGGUGCCAA` is recorded as 0.654.
`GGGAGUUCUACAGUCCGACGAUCUGUCUAUAAGCUCAUCACAGCCUAGAGUUAAGUAAAGUCAAUUCACAGAAGCACAAUUUUGCCCUUUGCGAGACAUUGUUGCCUCUAUCUAGUCCUACAAGUAGGGUUUUUGGAAUUCUCGGGUGCCAA` — result for “RBNS enrichment (R)”: 0.251.
`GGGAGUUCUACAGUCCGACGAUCCAUUUGUAAAACCACCAGCAUCAGGAGUAAGGGGGAGGCCAGAGGGCUCAGAUGGACACAGAAUUCUAGCUUUACCUGCAUCCGCUGAUUCAGUUUUCUGUUGGGAUCAGUGGAAUUCUCGGGUGCCAA`: “RBNS enrichment (R)” 2.28.
`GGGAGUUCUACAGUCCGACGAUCAGUUACUUCCUAGAUACCAACAGGGGUACAGGUAUUGAUUAAAGACGGCUGUUCCAAAUGGGAGAAAUUGGCCAAAAUAAAGGGGUUACAGGGCCCAUGCAAGUCCGAAAUGGAAUUCUCGGGUGCCAA` — result for “RBNS enrichment (R)”: 1.

Set 3 — method: universal PBM; form: double-stranded DNA, one strand shown; medium: in vitro; concentration: not given; reading: higher = stronger binding
Target: Sal-like protein 4, full length isoform B (SALL4, Homo sapiens, UniProt Q9UJQ4-2, residues 1-616)
Notes: 8-mer, flanks averaged, mean of replicates
Target sequence (chain): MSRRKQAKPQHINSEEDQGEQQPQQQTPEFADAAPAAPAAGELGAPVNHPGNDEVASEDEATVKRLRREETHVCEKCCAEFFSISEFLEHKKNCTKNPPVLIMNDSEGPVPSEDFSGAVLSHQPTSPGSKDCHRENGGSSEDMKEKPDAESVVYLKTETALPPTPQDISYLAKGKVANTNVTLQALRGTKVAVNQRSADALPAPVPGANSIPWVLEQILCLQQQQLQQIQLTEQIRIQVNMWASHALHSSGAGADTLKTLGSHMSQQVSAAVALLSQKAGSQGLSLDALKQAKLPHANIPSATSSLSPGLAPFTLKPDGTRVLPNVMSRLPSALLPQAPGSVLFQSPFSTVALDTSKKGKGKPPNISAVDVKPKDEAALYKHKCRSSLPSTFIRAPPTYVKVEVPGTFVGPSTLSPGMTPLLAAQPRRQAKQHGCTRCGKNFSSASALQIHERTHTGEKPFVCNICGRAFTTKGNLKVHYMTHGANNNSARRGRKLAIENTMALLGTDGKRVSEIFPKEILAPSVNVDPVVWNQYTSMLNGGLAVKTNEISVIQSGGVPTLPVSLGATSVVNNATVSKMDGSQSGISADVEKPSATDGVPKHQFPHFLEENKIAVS
`CATGTTGC` gave an E-score of -0.035.
For `TACGCTAA`, the E-score was 0.105.
The E-score of `ACCTCCAC` is reported as -0.145.
With `TAACAACA` the E-score was 0.226.
For `GACACTTA`, the E-score was 0.118.
For `AACCCACG`, the E-score was -0.123.
The E-score of `GTGATACA` is reported as 0.133.
`ATCAAACC` gave an E-score of 0.0345.
With `ACGTAGTG` the E-score was -0.075.
`AGCGTGTG` gave an E-score of -0.00383.
The E-score of `CGATAAAG` is reported as 0.119.
The E-score of `CGATTCTC` is reported as 0.101.
The E-score of `CACTGATA` is reported as 0.0924.
`CTTCTAGA` has an E-score of -0.029.
`GTCTGTCA` gave an E-score of -0.0272.
`CTCGCGGC` has an E-score of -0.369.
`ATGCGAGA` gave an E-score of 0.103.
With `TAATGTAA` the E-score was 0.294.
`AGCTAAGC` gave an E-score of -0.287.
With `ATCTGCAC` the E-score was 0.0538.
`GCCGTTCA` has an E-score of -0.215.
The E-score of `GGATCGAC` is reported as -0.262.
The E-score of `CCATACTA` is reported as 0.287.
With `CATAATCA` the E-score was 0.37.
With `TCCTACGA` the E-score was -0.187.

Set 4 — method: aptamer microarray, sandwich; form: DNA with 2'F-ANA; medium: in vitro; concentration: 200 nM; added: Cy3 exosite-II aptamer, 400 nM; reading: higher = stronger binding; sequence: GGTTGGTGTGGTTGG
Target: Prothrombin, mature alpha-thrombin (F2, Homo sapiens, UniProt P00734)
Notes: whole 15-mer aptamer, many near background
`2'F-ANA at 4 5 7 8 9 10 11 14 15`: “mean fluorescence intensity” 61.2 a.u.
Under “mean fluorescence intensity”, `2'F-ANA at 2 4 8 9 10 13 14 15` is recorded as 68.2 a.u.
For `2'F-ANA at 2 3 4 5 6 7 9 10 12 15`, “mean fluorescence intensity” read 147 a.u.
`2'F-ANA at 2 4 5 6 10 11 13`: “mean fluorescence intensity” 46.2 a.u.
Under “mean fluorescence intensity”, `2'F-ANA at 1 2 6 7 8 9 10 11 14 15` is recorded as 60.6 a.u.
`2'F-ANA at 1 2 3 4 6 9 12 13 15` — result for “mean fluorescence intensity”: 185 a.u.
`2'F-ANA at 1 3 4 5 14`: “mean fluorescence intensity” 49.4 a.u.
`2'F-ANA at 3 4 8 11 12 14 15` — result for “mean fluorescence intensity”: 388 a.u.
Under “mean fluorescence intensity”, `2'F-ANA at 1 3 4 5 7 8 9 11 13 14 15` is recorded as 44.1 a.u.
`2'F-ANA at 2 4 6 7 9 12 14 15`: “mean fluorescence intensity” 101 a.u.
`2'F-ANA at 1 2 4 5 6 7 9 11 12 13 15` — result for “mean fluorescence intensity”: 61.4 a.u.
`2'F-ANA at 2 3 4 8 10 12 13` — result for “mean fluorescence intensity”: 244 a.u.
Under “mean fluorescence intensity”, `2'F-ANA at 1 2 6 8 10 13` is recorded as 48.6 a.u.
`2'F-ANA at 3 4 5 6 7 13 14 15` — result for “mean fluorescence intensity”: 200 a.u.
Under “mean fluorescence intensity”, `2'F-ANA at 1 2 4 6 10 11 13 15` is recorded as 48.2 a.u.
`2'F-ANA at 1 5 6 7 8 9 10 11 12 13` — result for “mean fluorescence intensity”: 47.2 a.u.
`2'F-ANA at 1 2 3 6 8 10 11 12 13 14 15`: “mean fluorescence intensity” 71.2 a.u.
Under “mean fluorescence intensity”, `2'F-ANA at 1 5 6 8 10 11 13 14` is recorded as 48 a.u.

For quick reference, copied from above (set 3):
With `ATCTGCAC` the E-score was 0.0538.
`AGCTAAGC` gave an E-score of -0.287.
With `ACGTAGTG` the E-score was -0.075.
The E-score of `CGATAAAG` is reported as 0.119.
`CATGTTGC` gave an E-score of -0.035.
The E-score of `GTGATACA` is reported as 0.133.
For `TACGCTAA`, the E-score was 0.105.
`AGCGTGTG` gave an E-score of -0.00383.
For `AACCCACG`, the E-score was -0.123.
